Assay results pooled from the literature.
Each line is one published result; not all experiments were run side by side. ± marks the error that the study gave.
CPL: CPL (Toxoplasma gondii, UniProt Q6DMN0)
Aminopeptidase N: Aminopeptidase N (Neisseria meningitidis, UniProt Q9JYV4)
BPHL: Serine hydrolase BPHL (BPHL, Homo sapiens, UniProt Q86WA6)

`COc1ccccc1CN(CCC(C)C)c1nc(C#N)nc(N2CCOCC2)n1` has a selectivity ratio of 0.07 (CPL; enzyme activity, inhibitor; baseline: human over Toxoplasma IC50).
For `Cc1cc(O)cc(C)c1CC(N)C(=O)NC1CCNc2c(Br)cc(Cc3ccccc3)cc21` (stereo not shown), the maximal stimulation was 69% (Delta-type opioid receptor (Oprd1, Rattus norvegicus, UniProt P33533); GTPγS binding, agonist; C6 cells expressing DOR; baseline: DPDPE at 10 µM).
With `N#Cc1nc(N2CCOCC2)nc(N(CCC2CCCCC2)Cc2ccc(F)cc2)n1` the selectivity ratio was 1.3 (CPL; enzyme activity, inhibitor; baseline: human over Toxoplasma IC50).
With `CC(C)(C)C[C@H](N)C(=O)Nc1ccc2c(CC(N)=O)cc(=O)oc2c1` the Km was 61 ± 1.6 µM (Aminopeptidase N; enzyme activity, substrate; pH 7.5, 37 °C).
For `CCOC(=O)C(=Cc1cccc(C(N)=O)c1)C(=O)OCC`, binding read “no binding” (Genome polyprotein, 3C protease (Human enterovirus D68, UniProt Q68T42, C1641Y/I1565V/I1594T/R1603K/Y1579H); isothermal titration calorimetry; enterovirus D68; concentration not given).
`O=C(CCCC[C@@H]1SC[C@@H]2NC(=O)N[C@@H]21)NCCCCCCCCN1[C@H]2[C@H](O)[C@@H](O)[C@H](O[C@@H]3OC[C@@H](O)[C@H](O)[C@H]3O)C[C@H]21` (stereo partly shown) — result for probe labelling: “inhibited” (Probable endo-1,4-beta-xylanase C (xlnC, Aspergillus niger, UniProt C5J411); activity-based probe binding, competitive inhibitor, in-gel fluorescence; Aspergillus niger, xylan-induced secretome; concentration not given, band near 30 kDa, with: Cy5 xylobiose activity-based probe).
The kinact/Ki of `CCCCCCCCNP(=O)(Nc1ccccc1)O[C@@H]1O[C@H](CO)[C@@H](O)[C@H](O)[C@H]1F` (stereo partly shown) is reported as 358 M⁻¹ s⁻¹ (Lysosomal acid glucosylceramidase (GBA1, Homo sapiens, UniProt P04062); enzyme activity, irreversible inhibitor; pH 5.5, 37 °C, with: 2,4-dinitrophenyl beta-D-glucopyranoside).
With `CCC(CC)OC1C=C(C(=O)OC(C)OC(=O)C(N)C(C)C)CC(NC(=N)N)C1NC(C)=O` (mixture of isomers) the Vmax was 19.4 nmol/min/µg (BPHL; hydrolysis, substrate; pH 7.4).
The inhibition of `O=c1c(O)c(-c2cc(O)ccc2O)oc2cc(O)cc(O)c12` is reported as 71.3 ± 2.57% (Acetylcholinesterase (ACHE, Homo sapiens, UniProt P22303); enzyme activity, inhibitor; 500 µg/mL).
The activation V1/2 of `CCN(Cc1ccccc1)C(=O)CCc1nc(CN2CCN(C(=O)Cc3ccc(OC)c(OC)c3)CC2)no1` is reported as -31.8 ± 1.13 mV (Potassium voltage-gated channel subfamily KQT member 4 (KCNQ4, Homo sapiens, UniProt P56696); potassium current, whole-cell patch clamp; CHO, stable; 300 nM).
The Km of `CC(C)CC[C@H](N)C(=O)Nc1ccc2c(CC(N)=O)cc(=O)oc2c1` is reported as 56.9 ± 1.8 µM (Aminopeptidase N; enzyme activity, substrate; pH 7.5, 37 °C).
The substrate hydrolysis of `CC(=O)NCC(=O)NCC(=O)N[C@H](C(=O)NCC(=O)NCC(N)=O)[C@@H](C)OP(=O)(O)O` is reported as 5.86% (Phospholysine phosphohistidine inorganic pyrophosphate phosphatase (LHPP, Homo sapiens, UniProt Q9H008); enzyme activity; concentration not given, 90 min, pH 7.8, with: substrate 100 µM).
`Nc1nc2c([C@@H]3O[C@@H]4COP(=O)(O)O[C@H]5[C@@H](O)[C@H](n6cnc7c(=O)[nH]c(N)nc76)O[C@@H]5COP(=O)(O)O[C@H]4[C@H]3O)snc2c(=O)[nH]1`: “product P2 share” 42% (Cyclic di-GMP phosphodiesterase RocR (rocR, Pseudomonas aeruginosa, UniProt Q9HX69); cyclic dinucleotide hydrolysis, substrate, HPLC).
`CC(COC(=O)c1ccccc1)OC(=O)C(N)C(C)C` (mixture of isomers) gave a Km of 460 µM (BPHL; enzyme activity, substrate).
`CC[C@H](C)[C@H](NC(=O)[C@H](Cc1c[nH]cn1)NC(=O)[C@H](CCCCNC(=O)[C@@H](NC(=O)[C@H](CCCCN)NC(=O)CSC[C@H](NC(=O)[C@H](Cc1ccccc1)NC(=O)[C@H](CCCCNC(=O)[C@H](CC(C)C)NC(=O)[C@@H]1CCCN1C(=O)[C@H](CCCCN)NC(=O)c1ccc(O[C@@H]2O[C@H](CO)[C@H](O)[C@H](O)[C@H]2O)cc1)NC(=O)[C@H](CC(C)C)NC(=O)[C@@H]1CCCN1C(=O)[C@H](CCCCN)NC(=O)C[C@@H]1O[C@@H](C)[C@@H](O)[C@@H](O)[C@@H]1O)C(N)=O)[C@@H](C)CC)NC(=O)[C@@H](NC(=O)[C@H](CCCCN)NC(=O)CSC[C@H](NC(=O)[C@H](Cc1ccccc1)NC(=O)[C@H](CCCCNC(=O)[C@H](CC(C)C)NC(=O)[C@@H]1CCCN1C(=O)[C@H](CCCCN)NC(=O)c1ccc(O[C@@H]2O[C@H](CO)[C@H](O)[C@H](O)[C@H]2O)cc1)NC(=O)[C@H](CC(C)C)NC(=O)[C@@H]1CCCN1C(=O)[C@H](CCCCN)NC(=O)C[C@@H]1O[C@@H](C)[C@@H](O)[C@@H](O)[C@@H]1O)C(N)=O)[C@@H](C)CC)C(N)=O` — result for “relative potency per fucoside”: 1.4 (Fucose-binding lectin PA-IIL (lecB, Pseudomonas aeruginosa, UniProt Q9HYN5); binding, isothermal titration calorimetry; divided by fucoside copies; baseline: monovalent fucoside KD over ligand KD).
For `CC(C)C[C@H](NC(=O)[C@H](C)N)C(=O)N[C@@H](CC(C)C)C(=O)N[C@@H](C)C(=O)N[C@@H](CC(N)=O)C(=O)N[C@@H](Cc1c[nH]cn1)C(=O)N[C@@H](CCC(=O)O)C(=O)N[C@@H](CCC(=O)O)C(=O)N[C@@H](CC(C)C)C(=O)N[C@@H](Cc1ccccc1)C(=O)N[C@@H](CCC(N)=O)C(=O)N[C@H](C(=O)NCC(=O)NCC(=O)NCC(=O)N[C@@H](CO)C(=O)N[C@@H](CSC1CC(=O)N(CCNC(=O)CCCCCN2C(=CC=C3CCCC(C=CC4=[N+](CCCCS(=O)(=O)[O-])c5ccc(S(=O)(=O)O)cc5C4(C)C)=C3Oc3ccc(S(=O)(=O)O)cc3)C(C)(C)c3cc(S(=O)(=O)O)ccc32)C1=O)C(=O)O)[C@@H](C)O` (stereo partly shown), “association time constant” read 4.8 min (Glypican-3 (Homo sapiens, UniProt P51654); binding, flow cytometry; Hep3B; 5 µM, 25 °C).
The inhibition of `CC(=O)NC(Cc1ccc(Br)c(Cl)c1)C(=O)N[C@@H](C)C(=O)N1CCC[C@H]1C(=O)N1CCC[C@H]1C(=O)N[C@@H](CCC(=O)O)C(=O)N[C@@H](Cc1c[nH]cn1)C(=O)N[C@@H](CO)C(=O)N[C@H](C(=O)N[C@@H](C)C(N)=O)[C@@H](C)OP(=O)(O)O` (stereo partly shown) is reported as 0.64% (Tyrosine-protein kinase Lck (LCK, Homo sapiens, UniProt P06239); enzyme activity, inhibitor; 10 µM).
`C[C@H]1Oc2c(c(=O)oc3c2ccc2ccccc23)[C@@H]1C` gave a remaining activity of 67 ± 2.7% (Tyrosine-protein kinase SYK (SYK, Homo sapiens, UniProt P43405); enzyme activity, inhibitor, ADP-Glo; 5 µM).
`CCN1CCN(Cc2ccc(C(=O)Nc3ccc(C)c(NCc4cnc5[nH]ccc5c4OC)c3)cc2C(F)(F)F)CC1`: “EC50 fold shift” 100 fold (Epithelial discoidin domain-containing receptor 1 (DDR1, Homo sapiens, UniProt Q08345, G707A); autophosphorylation; U2OS; baseline: G707A mutant over wild type).
With `CCC(C)Sc1nc2c([nH]1)c(=S)n(C)c(=O)n2C` (stereo not shown) the remaining activity was 103% (Androgen receptor (AR, Homo sapiens, UniProt P10275); reporter gene, antagonist, PSA-luciferase; HeLa-A6; 10 µM, 24 h, with: 5 nM dihydrotestosterone; baseline: maximal activity).
For `CC[C@H](C)[C@H](NC(=O)[C@H](CC(N)=O)NC(=O)[C@H](CC(N)=O)NC(=O)[C@@H](N)CCCNC(N)=O)C(=O)N1C[C@@H](n2cc([C]34[CH]5[CH]6[CH]7[CH]3[Fe]6754389%10[CH]4[CH]3[CH]8[CH]9[CH]4%10)nn2)C[C@H]1C(=O)N[C@@H](Cc1csc2ccccc12)C(=O)N[C@@H](CO)C(N)=O` (stereo partly shown), “binding entropy term -TΔS” read 5.1 ± 2.6 kcal/mol (Envelope glycoprotein gp160 (env, Human immunodeficiency virus type 1 group M subtype B, UniProt P35961); ITC; concentration not given, pH 7.4, 25 °C).
With `CC(C)P(=S)(NP(=S)(C(C)C)C(C)C)C(C)C` the ΔS was 0.136 kJ/mol/K (Alpha-amylase (Bacillus subtilis, UniProt P00691); binding, Van't Hoff analysis; pH 6.8, 298–310 K).

Repeated from above:
For `CC[C@H](C)[C@H](NC(=O)[C@H](CC(N)=O)NC(=O)[C@H](CC(N)=O)NC(=O)[C@@H](N)CCCNC(N)=O)C(=O)N1C[C@@H](n2cc([C]34[CH]5[CH]6[CH]7[CH]3[Fe]6754389%10[CH]4[CH]3[CH]8[CH]9[CH]4%10)nn2)C[C@H]1C(=O)N[C@@H](Cc1csc2ccccc12)C(=O)N[C@@H](CO)C(N)=O` (stereo partly shown), “binding entropy term -TΔS” read 5.1 ± 2.6 kcal/mol (Envelope glycoprotein gp160 (env, Human immunodeficiency virus type 1 group M subtype B, UniProt P35961); ITC; concentration not given, pH 7.4, 25 °C).
